# Measurements gathered from unrelated publications.
# Numbered parts are unrelated; each lists some results of a single study.

# Sample 1
# Target: RNA binding protein fox-1 homolog 2, RRM domain, GST-SBP tag (RBFOX2, Homo sapiens, UniProt O43251-10, residues 100-194)
# Method: RNA Bind-n-Seq
# Molecule type: RNA
# Medium: in vitro
# Tested at: 365 nM
# Setting: natural RNA segment, single round, ends assumed
# Reference: no-protein control
# Reading: higher = stronger binding
# Shared flanks, not repeated: GGGAGUUCUACAGUCCGACGAUC … UGGAAUUCUCGGGUGCCAA
Oligonucleotide,RBNS enrichment (R)
CUGCGGUGGGCUGAUGAGCUGCUUGCAUUUCUGUGACAUUUCCAGAUAUGAUUCUCAGUGGGAUUUUGGAAACUUUGAUUGCUCAAGCUCACCCUUCUUAACAUUCUGUA,1.13
AUUUUUUAAAGAAUAAAUCCCGCAUGUGAAAGUUUAUGAAGGUUACUAGCAGGUUCUUUUUAAAAGAACAUUUGGUUUUUUUUAAACAUGUGAUUUUUAACACAUAUAUU,5.7
CAUUGUUUGGUUCCAGAAAACCAACCACCUUUUGGUUAAGUGGUAAAUUAAAAAGAAAAACAGUUUCAAAGAAAAGCUCUGAAUCCACAAAAUGUCUUUCUCCAUGGUUU,0.765
AAAAAGAAGGAAAAAAAAGGCUGCAUUUUAAAAUUAUUUCCUUAGAAUUAAAGAUACUACAUAGGGGCCCUUGGGUAAGCAAAUCCAUUUUUCCCAGAGGCUAUCUUGAU,3.73
GAAGCAGCUGUUGGAACUCCUGGUAUUAAUGGAGCCAGAGUGACAUGCAUCCUUCGUCUGUCUCAUCAGCACUGGCGUCAUUCCUUACAGUUUACAGAACUCAUGUAACU,1.76

# Sample 2
# Target: Histone acetyltransferase KAT6A, winged helix 2, GST fusion (KAT6A, Homo sapiens, UniProt Q92794, residues 85-181)
# Method: protein binding microarray
# Molecule type: double-stranded DNA, one strand shown
# Medium: in vitro
# Tested at: not given
# Setting: 8-mer, flanks averaged, mean of 2 arrays, mostly near background
# Reference: not given
# Reading: higher = stronger binding
# Target sequence (chain): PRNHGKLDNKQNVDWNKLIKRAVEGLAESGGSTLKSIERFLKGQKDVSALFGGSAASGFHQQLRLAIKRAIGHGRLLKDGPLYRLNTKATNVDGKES
Oligonucleotide,E-score
CCCACATC,-0.0535
GACTGAGA,-0.0917
CACTAGCC,0.103
AATGTGAA,0.00626
CCTTGCAC,-0.0614
TGCGACCA,0.123

# Sample 3
# Target: Sal-like protein 4, full length isoform B (SALL4, Homo sapiens, UniProt Q9UJQ4-2, residues 1-616)
# Method: universal PBM
# Molecule type: double-stranded DNA, one strand shown
# Medium: in vitro
# Tested at: not given
# Setting: 8-mer, flanks averaged, mean of replicates
# Reading: higher = stronger binding
# Target sequence (chain): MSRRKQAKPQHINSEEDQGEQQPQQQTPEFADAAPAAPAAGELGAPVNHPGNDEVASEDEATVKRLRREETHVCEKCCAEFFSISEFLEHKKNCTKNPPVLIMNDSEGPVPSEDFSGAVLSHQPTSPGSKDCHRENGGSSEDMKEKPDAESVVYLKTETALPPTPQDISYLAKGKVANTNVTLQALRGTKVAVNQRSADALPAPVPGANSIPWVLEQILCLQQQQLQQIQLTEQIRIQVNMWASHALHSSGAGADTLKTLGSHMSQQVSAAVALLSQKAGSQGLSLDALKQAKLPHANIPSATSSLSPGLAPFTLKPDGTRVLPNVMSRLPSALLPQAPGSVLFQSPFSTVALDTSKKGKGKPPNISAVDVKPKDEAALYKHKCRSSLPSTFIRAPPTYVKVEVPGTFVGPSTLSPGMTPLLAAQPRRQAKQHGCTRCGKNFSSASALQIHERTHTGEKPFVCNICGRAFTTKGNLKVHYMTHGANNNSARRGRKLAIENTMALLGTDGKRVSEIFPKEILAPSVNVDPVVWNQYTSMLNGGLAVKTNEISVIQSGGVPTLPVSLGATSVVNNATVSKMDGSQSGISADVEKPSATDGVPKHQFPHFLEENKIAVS
Oligonucleotide,E-score
AGGAATGG,-0.0411
AGCTACGA,-0.0491
AACCGGGC,-0.275
AATGCGCG,-0.00802
CCCGATAG,-0.19

# Mixed results
Substance,target,test,system,setting,scale,quantity,result
"PhoQ, residues 284 288 289 292 302 303 GASLAW","PhoP, residues 12 14 15 18 19 AWHSL (Escherichia coli, UniProt P23836)","Sort-seq, item: YFP reporter",E. coli,"PhoQ-PhoP variant library, together with: 10 µM Mg2+","reference: high Mg2+ state, higher = stronger signaling",fold induction,1.32

# For quick reference, copied from above (sample 1):
Oligonucleotide,RBNS enrichment (R)
CAUUGUUUGGUUCCAGAAAACCAACCACCUUUUGGUUAAGUGGUAAAUUAAAAAGAAAAACAGUUUCAAAGAAAAGCUCUGAAUCCACAAAAUGUCUUUCUCCAUGGUUU,0.765
AAAAAGAAGGAAAAAAAAGGCUGCAUUUUAAAAUUAUUUCCUUAGAAUUAAAGAUACUACAUAGGGGCCCUUGGGUAAGCAAAUCCAUUUUUCCCAGAGGCUAUCUUGAU,3.73
